Experimental data gathered from unrelated publications.
Parts stem from different laboratories: compare values within a part only.

Study 1
Target: RNA binding protein fox-1 homolog 2, RRM domain, GST-SBP tag (RBFOX2, Homo sapiens, UniProt O43251-10, residues 100-194)
Technique: RNA Bind-n-Seq
Form: RNA
Sample: in vitro
Concentration: 365 nM
Setting: natural RNA segment, single round, ends assumed
Relative to: no-protein control
Direction: higher = stronger binding
All sequences stand within: GGGAGUUCUACAGUCCGACGAUC … UGGAAUUCUCGGGUGCCAA
Residues (chain): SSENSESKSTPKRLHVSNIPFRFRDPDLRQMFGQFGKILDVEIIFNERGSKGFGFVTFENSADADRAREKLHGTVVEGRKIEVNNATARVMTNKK
| Oligonucleotide | RBNS enrichment (R) |
| --- | --- |
| CUCCUUGAGGUGCACAAGCACGGUCUCCUCUGAGUUCACCCCAGCCCACCCCCGCACCCACUAAUUCUGCUUUUCCUGCCCCUUGCUCCGUAAAAGUAUCAAAUACUUUC | 1.52 |
| UCUAAAGCCAUAGCUUUUGUUUUAUAUUGAGACAUAUAAUGUGUAAACUUAGUUCCCAAAUAAAUCAAUCCUGUCUUUCCCAUCUUCGAUGUUGCUAAUAUUAAGGCUUC | 0.315 |
| AUUACAAUUUUGGAUGCUAAAAAGUAACUUUCUAGUUAACCCUAAAGUCCUGUCAGAUUGUGAAGAAAUGUUCCAGGAUACACUUGGAUUAGUUAUGCAGUAUUUCUUAU | 0.504 |
| GAAGAUUUAUUGCAUUCUCCAUUUGUUAUCUGGGGACUUGUUAAAUAGAAACUGAAACUACUCUUGAAAAACAGGCAGCUCCUAAGAGCCACAGGUCUUGAUGUGACUUU | 0.459 |
| UGAACCCUGUAUUGCUGGGGCCGGAAGGAGCCCCUGAGCCUAGCCCCUUCCCGUCUGCCCUGUGUCCUCACUGCGUGUGGGUAUGACCUCUGCCUGGUGGCUGGUGUAUC | 1.29 |
| CUUGGUGAGGAUGGGUUUCAAACAGCACACUCCUCCCGGUGGAGGAAGAUUAACAACAGUCUCUCCCCCAGAACCUCAUUAUUUAUUUAUUUGGCAUUCCAGAAAGGAUU | 0.64 |
| GGAUCAUAGCUUCCUGUCCCCACCUAUUUUUGUAAAUAAAGUUUUAUGGGAACACAACCACAUCCAUUAUGCGUUGUCCGUGACUCCUUUCUUUCUGUAAUGGCACAAUG | 0.319 |
| CUGUGGGAGGUAAACUUAAGCUGAAGGUGGCGGACUCUACUGUCGCAGGCCACAGCAGACAGGGUGGGAGCCCUGUACAGCUUGAUAACCCUUAAUAAAGAAGGGACUUU | 0.251 |

Study 2
Target: Histone acetyltransferase KAT6A, winged helix 1, GST fusion (KAT6A, Homo sapiens, UniProt Q92794, residues 1-85)
Technique: protein binding microarray
Form: double-stranded DNA, one strand shown
Sample: in vitro
Concentration: not given
Setting: 8-mer, flanks averaged, mean of 2 arrays, mostly near background
Relative to: not given
Direction: higher = stronger binding
Residues (chain): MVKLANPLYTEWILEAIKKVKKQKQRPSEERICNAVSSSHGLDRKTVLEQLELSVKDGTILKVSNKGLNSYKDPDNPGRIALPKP
| Oligonucleotide | E-score |
| --- | --- |
| AGTAAACA | -0.126 |
| GATCGGAA | 0.0599 |
| GAAGGTTA | 0.0653 |
| AGCGTGCG | 0.363 |
| CAGTGGCC | -0.0362 |
| AAGGAGGC | -0.033 |
| GCGCGACA | 0.36 |
| AGAGCTTC | -0.193 |
| ACGGAACA | 0.162 |
| CAGCAGAC | -0.0822 |
| ATGGGGGG | -0.211 |
| CCTTTGCC | -0.0328 |
| GGTTCATA | -0.0128 |
| ATAGGGGC | -0.0006 |
| CTCACGGC | 0.375 |
| ACTTTCAG | -0.143 |
| GTGGGGTA | -0.0959 |
| ACGTTATC | -0.131 |

Study 3
Target: Sal-like protein 4, full length isoform B (SALL4, Homo sapiens, UniProt Q9UJQ4-2, residues 1-616)
Technique: universal PBM
Form: double-stranded DNA, one strand shown
Sample: in vitro
Concentration: not given
Setting: 8-mer, flanks averaged, mean of replicates
Direction: higher = stronger binding
| Oligonucleotide | E-score |
| --- | --- |
| CGAGTATA | 0.155 |
| CCGACCCA | -0.191 |
| CCTGGAGC | -0.201 |
| CATAGCCA | 0.0527 |
| AAAGACCC | -0.0811 |
| ACGAGGAG | -0.0393 |
| CTATACGC | 0.0178 |
| CCCTGAAG | -0.278 |
| CCCCGGGA | -0.294 |
| TATCGTGA | 0.0258 |
| AGTTGAAA | 0.174 |
| GCTCCGAC | -0.219 |
| CAGGCACC | -0.293 |
| CATGACTA | 0.0508 |
| ACCGAGCC | -0.303 |
| AGCGTGAC | -0.133 |
| GCGGATAC | 0.0427 |
| CATCGACG | -0.2 |
| CAACATTG | 0.165 |
| ACTTCATA | 0.291 |
| AAAGTCAA | 0.0169 |
| ATCTGTTG | -0.0344 |
| TAAGCATA | 0.334 |

Study 4
Target: Interferon regulatory factor 7, full length, phosphomimetic (IRF7, Homo sapiens, UniProt Q92985, residues 1-503, S471D/S472D/S475D/S476D/S477D/S483D/S484D/S487D)
Technique: protein-binding microarray
Form: double-stranded DNA, one strand shown
Sample: in vitro
Concentration: 2200 nM top
Setting: 60-bp whole probe
Together with: salmon DNA 0.4 mg/ml
Relative to: random background probes
Direction: higher = stronger binding
All sequences stand within: GCCTAGCAC … GTCTTGATTCGCTTGACGCTGCTG
Residues (chain): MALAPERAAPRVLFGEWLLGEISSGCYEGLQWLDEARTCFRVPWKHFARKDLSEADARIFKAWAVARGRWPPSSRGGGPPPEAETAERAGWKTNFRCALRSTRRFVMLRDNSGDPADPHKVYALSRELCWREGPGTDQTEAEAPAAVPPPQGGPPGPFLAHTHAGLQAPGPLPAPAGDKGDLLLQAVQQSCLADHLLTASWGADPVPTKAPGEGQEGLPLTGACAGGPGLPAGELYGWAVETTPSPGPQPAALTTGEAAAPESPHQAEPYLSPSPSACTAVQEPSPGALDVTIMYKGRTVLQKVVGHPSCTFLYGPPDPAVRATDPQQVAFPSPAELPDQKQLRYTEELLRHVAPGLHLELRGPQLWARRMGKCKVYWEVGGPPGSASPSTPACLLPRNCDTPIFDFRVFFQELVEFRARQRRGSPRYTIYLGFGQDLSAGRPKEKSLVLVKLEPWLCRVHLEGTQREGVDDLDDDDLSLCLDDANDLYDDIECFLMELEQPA
| Oligonucleotide | fitted relative affinity [z-score] |
| --- | --- |
| TTAGGACTGGGATTTCGGTTAGTGCTA | 1.48 |
| TCACTTACCTCACTCGTACTGTGCTAG | 2.26 |
| GACGGACTGCTTATCCGGACGTGCTAG | 0.0819 |
| CATTTTAGTAGTTTCTAAAAGTGCTAG | 1.32 |
| TTAGGTATCGGGTTTCGGTGAGTGCTA | 1.5 |
| ATGTTCACTGTGTACCGTCTGTGCTAG | 1.73 |
| CTGCTCCTCTTTTTTTGGTAGTGCTAG | 1.46 |
| ATAGATTTCAGTTTCGATTAGTGCTAG | 8.17 |
| TTAGATCTCAGAATGGATTAGTGCTAG | -0.42 |
| GACGAACTGAGGTTTCGAGACGTGCTA | 1.29 |
| TCCACTTTCTTTTGCTTGTTGTGCTAG | 4.4 |
| TTAGACCTGGGGACTGGATTAGTGCTA | -0.649 |
| TTAGGTCTCGGTTTCGTTTAGTGCTAG | 6.49 |
| TATGGTATGCTCATGACAAAGTGCTAG | 0.343 |
| TCAGAAATCAGTATGTTACTGTGCTAG | -0.169 |
| TTAGGTCACGGTATCGGTTAGTGCTAG | 0.487 |
| TTATGACTGGGTTTCGGTTAGTGCTAG | 4.37 |
| AGCAAGCCCCTTCCTTTCGGGTGCTAG | 0.945 |
| GACGGTATCGGTTTCGGGAGGTGCTAG | 3.31 |

Repeated from above (study 4):
| Oligonucleotide | fitted relative affinity [z-score] |
| --- | --- |
| TTAGGTCACGGTATCGGTTAGTGCTAG | 0.487 |
| TTATGACTGGGTTTCGGTTAGTGCTAG | 4.37 |
| AGCAAGCCCCTTCCTTTCGGGTGCTAG | 0.945 |
| GACGGTATCGGTTTCGGGAGGTGCTAG | 3.31 |
